Measurements from different studies.
Lines come from different studies, so protocols differ. ± gives the spread as reported.
Chain of UniProt P20782 (whole entry, looked up): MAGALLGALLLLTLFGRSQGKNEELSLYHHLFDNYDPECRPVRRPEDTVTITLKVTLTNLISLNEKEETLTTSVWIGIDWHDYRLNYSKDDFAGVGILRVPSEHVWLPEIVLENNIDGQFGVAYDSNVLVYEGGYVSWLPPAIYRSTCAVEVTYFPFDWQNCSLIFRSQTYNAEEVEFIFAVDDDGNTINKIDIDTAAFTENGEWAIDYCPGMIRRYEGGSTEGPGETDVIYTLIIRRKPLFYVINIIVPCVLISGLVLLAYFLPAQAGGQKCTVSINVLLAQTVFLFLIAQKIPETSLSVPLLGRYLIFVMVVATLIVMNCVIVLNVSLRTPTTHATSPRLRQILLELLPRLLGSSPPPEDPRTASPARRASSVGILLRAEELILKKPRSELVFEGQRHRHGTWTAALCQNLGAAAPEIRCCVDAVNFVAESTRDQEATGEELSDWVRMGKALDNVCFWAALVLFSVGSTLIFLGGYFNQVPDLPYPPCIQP
Chain of UniProt Q5XXP4 (whole entry, looked up): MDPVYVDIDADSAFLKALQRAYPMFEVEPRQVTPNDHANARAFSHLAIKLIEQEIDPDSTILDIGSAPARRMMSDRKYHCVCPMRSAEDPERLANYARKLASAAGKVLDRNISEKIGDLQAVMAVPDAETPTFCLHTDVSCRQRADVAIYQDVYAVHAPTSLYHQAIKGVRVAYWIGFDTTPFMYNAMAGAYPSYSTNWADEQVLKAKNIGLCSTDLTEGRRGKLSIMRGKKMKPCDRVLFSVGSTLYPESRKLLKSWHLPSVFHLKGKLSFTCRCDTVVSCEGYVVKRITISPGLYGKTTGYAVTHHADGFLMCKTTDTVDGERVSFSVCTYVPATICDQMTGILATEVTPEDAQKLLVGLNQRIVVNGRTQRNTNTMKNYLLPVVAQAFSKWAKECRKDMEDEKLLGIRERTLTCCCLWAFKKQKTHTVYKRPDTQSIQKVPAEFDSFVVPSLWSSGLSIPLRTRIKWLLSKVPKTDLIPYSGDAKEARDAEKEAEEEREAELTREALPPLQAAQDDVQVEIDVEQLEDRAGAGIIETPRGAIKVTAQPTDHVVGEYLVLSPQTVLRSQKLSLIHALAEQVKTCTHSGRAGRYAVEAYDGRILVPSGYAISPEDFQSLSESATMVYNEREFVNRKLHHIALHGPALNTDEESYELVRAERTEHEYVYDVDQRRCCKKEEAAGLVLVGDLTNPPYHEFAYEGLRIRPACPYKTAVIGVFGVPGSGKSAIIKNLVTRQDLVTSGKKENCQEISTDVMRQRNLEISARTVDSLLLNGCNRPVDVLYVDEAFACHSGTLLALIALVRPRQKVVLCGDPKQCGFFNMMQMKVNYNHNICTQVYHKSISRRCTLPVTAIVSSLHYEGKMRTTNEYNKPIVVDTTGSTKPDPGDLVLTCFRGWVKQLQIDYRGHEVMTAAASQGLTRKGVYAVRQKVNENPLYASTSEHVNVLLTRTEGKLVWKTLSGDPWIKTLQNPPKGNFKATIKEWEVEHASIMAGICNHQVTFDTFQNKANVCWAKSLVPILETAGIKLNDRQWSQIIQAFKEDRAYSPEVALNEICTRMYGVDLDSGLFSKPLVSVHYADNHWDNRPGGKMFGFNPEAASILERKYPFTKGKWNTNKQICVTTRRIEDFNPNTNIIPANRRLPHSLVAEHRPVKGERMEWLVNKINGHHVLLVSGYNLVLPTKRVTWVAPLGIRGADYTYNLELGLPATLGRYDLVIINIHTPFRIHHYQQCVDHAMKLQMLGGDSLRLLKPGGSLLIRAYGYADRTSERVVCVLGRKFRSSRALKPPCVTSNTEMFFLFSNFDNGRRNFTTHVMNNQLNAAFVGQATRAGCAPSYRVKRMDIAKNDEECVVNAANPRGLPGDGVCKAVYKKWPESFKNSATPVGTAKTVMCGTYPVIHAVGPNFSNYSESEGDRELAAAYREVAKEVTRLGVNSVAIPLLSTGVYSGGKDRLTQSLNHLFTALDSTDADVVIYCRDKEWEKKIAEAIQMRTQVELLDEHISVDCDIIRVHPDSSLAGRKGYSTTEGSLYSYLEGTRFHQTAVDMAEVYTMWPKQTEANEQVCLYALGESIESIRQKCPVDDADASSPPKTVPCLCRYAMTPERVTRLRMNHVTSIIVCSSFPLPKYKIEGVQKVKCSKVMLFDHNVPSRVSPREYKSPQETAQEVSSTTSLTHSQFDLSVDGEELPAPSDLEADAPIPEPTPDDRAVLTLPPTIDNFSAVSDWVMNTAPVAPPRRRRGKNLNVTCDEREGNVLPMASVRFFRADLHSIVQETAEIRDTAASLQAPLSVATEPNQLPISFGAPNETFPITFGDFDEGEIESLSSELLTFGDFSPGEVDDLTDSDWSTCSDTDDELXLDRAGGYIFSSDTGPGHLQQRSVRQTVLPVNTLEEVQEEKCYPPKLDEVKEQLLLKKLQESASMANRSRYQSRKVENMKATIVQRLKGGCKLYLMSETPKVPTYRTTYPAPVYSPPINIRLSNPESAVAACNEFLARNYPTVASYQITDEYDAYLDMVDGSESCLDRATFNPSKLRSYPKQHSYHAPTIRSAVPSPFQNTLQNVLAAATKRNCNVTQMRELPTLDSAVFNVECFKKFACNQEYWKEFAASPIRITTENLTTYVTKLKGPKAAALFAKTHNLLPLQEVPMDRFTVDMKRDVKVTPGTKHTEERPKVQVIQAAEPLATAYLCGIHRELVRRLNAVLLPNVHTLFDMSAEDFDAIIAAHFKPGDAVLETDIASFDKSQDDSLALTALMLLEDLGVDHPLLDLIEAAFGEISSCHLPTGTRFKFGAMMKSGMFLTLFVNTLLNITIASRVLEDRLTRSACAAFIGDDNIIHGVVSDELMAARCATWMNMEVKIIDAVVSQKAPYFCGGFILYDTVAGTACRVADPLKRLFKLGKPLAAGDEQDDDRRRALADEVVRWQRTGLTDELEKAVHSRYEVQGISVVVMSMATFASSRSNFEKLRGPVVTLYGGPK
Chain of UniProt P0A8V2 (whole entry, looked up): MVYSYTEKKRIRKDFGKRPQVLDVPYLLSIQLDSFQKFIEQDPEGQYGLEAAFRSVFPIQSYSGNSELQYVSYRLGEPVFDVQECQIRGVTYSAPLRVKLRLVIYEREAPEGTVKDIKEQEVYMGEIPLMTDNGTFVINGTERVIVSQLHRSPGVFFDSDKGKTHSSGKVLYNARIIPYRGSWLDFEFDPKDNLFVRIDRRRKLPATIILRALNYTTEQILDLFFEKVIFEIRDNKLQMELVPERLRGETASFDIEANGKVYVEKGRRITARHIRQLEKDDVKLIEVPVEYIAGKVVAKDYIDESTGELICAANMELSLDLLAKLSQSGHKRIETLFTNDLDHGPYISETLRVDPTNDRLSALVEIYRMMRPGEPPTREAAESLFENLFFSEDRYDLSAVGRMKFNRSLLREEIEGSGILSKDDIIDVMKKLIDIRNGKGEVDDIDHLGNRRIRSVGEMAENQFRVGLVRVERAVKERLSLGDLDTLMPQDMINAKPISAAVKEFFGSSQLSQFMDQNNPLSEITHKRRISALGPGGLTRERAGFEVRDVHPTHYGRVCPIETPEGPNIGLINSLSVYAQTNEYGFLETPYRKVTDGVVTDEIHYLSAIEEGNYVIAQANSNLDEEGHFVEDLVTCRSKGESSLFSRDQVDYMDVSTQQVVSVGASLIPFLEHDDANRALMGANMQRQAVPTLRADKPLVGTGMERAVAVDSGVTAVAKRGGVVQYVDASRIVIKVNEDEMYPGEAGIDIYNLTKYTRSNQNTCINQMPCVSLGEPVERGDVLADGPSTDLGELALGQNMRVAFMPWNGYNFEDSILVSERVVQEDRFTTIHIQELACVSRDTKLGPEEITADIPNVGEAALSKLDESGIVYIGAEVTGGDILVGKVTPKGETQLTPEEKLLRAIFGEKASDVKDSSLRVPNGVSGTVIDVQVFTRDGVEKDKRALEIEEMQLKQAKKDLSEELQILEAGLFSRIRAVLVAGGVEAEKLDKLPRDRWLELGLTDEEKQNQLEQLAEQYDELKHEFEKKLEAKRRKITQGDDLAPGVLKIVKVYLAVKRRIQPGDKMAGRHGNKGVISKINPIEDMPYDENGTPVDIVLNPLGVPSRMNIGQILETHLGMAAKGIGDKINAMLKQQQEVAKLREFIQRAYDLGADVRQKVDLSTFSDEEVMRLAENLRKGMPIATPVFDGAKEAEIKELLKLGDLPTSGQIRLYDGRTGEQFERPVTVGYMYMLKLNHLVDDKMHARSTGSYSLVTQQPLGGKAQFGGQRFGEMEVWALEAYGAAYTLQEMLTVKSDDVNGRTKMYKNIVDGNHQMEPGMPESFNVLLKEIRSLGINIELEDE
Chain of UniProt P05177 (whole entry, looked up): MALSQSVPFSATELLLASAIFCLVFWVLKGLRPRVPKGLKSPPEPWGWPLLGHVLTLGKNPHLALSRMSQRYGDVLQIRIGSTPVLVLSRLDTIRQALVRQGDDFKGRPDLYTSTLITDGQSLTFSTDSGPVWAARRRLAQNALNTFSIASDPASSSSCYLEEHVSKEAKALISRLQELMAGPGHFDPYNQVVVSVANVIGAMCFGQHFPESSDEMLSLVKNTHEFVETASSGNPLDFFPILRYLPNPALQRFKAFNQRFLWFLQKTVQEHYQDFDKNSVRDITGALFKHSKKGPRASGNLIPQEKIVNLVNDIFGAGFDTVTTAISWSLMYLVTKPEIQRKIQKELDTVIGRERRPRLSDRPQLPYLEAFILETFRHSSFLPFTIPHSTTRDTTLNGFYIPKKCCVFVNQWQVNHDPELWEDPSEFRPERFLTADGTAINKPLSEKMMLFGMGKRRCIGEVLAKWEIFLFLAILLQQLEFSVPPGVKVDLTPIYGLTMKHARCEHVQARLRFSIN
Chain of UniProt A0A7H0DNC1 (whole entry, looked up): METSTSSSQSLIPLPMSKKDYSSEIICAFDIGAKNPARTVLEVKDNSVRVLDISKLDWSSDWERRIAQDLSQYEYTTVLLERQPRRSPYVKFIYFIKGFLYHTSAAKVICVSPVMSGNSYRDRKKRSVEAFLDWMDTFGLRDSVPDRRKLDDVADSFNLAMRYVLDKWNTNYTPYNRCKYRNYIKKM

`CC(C)(C)[C@H](NC(=O)C(F)(F)F)C(=O)N1C[C@H]2[C@@H]([C@H]1C(=O)N[C@H](C#N)C[C@@H]1CCNC1=O)C2(C)C` — result for “participants with related adverse events”: 0% (human, fasted; oral, 500 mg single dose, 28 days, no ritonavir).
`Cc1ccccc1NC(=O)C(C)n1c(SCc2ccc(F)cc2)nc2cccnc21` (stereo not drawn) gave an IC50 of > 20000 nM (Replicase polyprotein 1ab, papain-like protease (rep, Severe acute respiratory syndrome-related coronavirus, UniProt P0C6X7); enzyme activity).
`CC[C@H](C)[C@H](NC(=O)[C@H](CC(C)C)NC(=O)[C@H](Cc1c[nH]c2ccccc12)NC(=O)[C@H](CCC(N)=O)NC(=O)[C@@H](NC(=O)[C@H](Cc1ccccc1)NC(=O)[C@H](C)NC(=O)[C@H](CCCCNC(=O)COCCOCCNC(=O)COCCOCCNC(=O)CC[C@H](NC(=O)CCCCCCCCCCCCCCCCCCC(=O)O)C(=O)O)NC(=O)[C@H](CCC(N)=O)NC(=O)[C@H](C)NC(=O)[C@@H](NC(=O)[C@H](CCCCN)NC(=O)[C@H](CC(=O)O)NC(=O)[C@H](CC(C)C)NC(=O)C(C)(C)NC(=O)[C@@H](NC(=O)[C@H](CO)NC(=O)[C@H](Cc1ccc(O)cc1)NC(=O)[C@H](CC(=O)O)NC(=O)[C@H](CO)NC(=O)[C@@H](NC(=O)[C@H](Cc1ccccc1)NC(=O)[C@@H](NC(=O)CNC(=O)[C@H](CCC(=O)O)NC(=O)C(C)(C)NC(=O)[C@@H](N)Cc1ccc(O)cc1)[C@@H](C)O)[C@@H](C)O)[C@@H](C)CC)[C@@H](C)CC)C(C)C)C(=O)N[C@@H](C)C(=O)NCC(=O)NCC(=O)N1CCC[C@H]1C(=O)N[C@@H](CO)C(=O)N[C@@H](CO)C(=O)NCC(=O)N[C@@H](C)C(=O)N1CCC[C@H]1C(=O)N1CCC[C@H]1C(=O)N1CCC[C@H]1C(=O)N[C@@H](CO)C(N)=O` has a Vz/F of 7.23 L (human; subcutaneous, 10.0 mg once weekly, week 15, multiple doses).
`CC(=O)O[C@@H]1[C@H](N)[C@@H](OP(=O)(O)O)[C@@]2(C(=O)O)CS[C@@](O)(C(N)=O)[C@@H]1O2` gave a Kd of 50 ± 1 nM (DNA-directed RNA polymerase subunit beta' / DNA-directed RNA polymerase subunit beta (rpoC/rpoB, Escherichia coli, UniProt P0A8T7+P0A8V2); binding to elongation complex, 6-MI fluorescence titration; wild-type RNAP; riboside RNA 3′-end Uracil).
`CC(C)C[C@H](NC(=O)[C@H](CO)NC(=O)CNC(=O)[C@H](CCCCN)NC(=O)[C@@H](NC(=O)[C@H](CC(N)=O)NC(=O)[C@H](CC(N)=O)NC(=O)[C@H](C)NC(=O)[C@@H](N)CCCNC(=N)N)[C@@H](C)O)C(=O)O` has an IC50 of 2090 nM (HLA class I histocompatibility antigen, B alpha chain (Homo sapiens, UniProt P01889); binding, competitor).
`Nc1ncnc2c([C@@H]3N[C@H](CO)[C@@H](O)[C@H]3O)c[nH]c12`: “supernatant virus titre” 7.8e+06 PFU/mL (Marburg marburgvirus; virus production; HeLa, Musoke; 0.4 µM).
Under “remaining fibrinogen γ chain”, `CNC(=O)[C@@H](NC(=O)[C@H](CC(C)C)[C@H](O)C(=O)NO)C(C)(C)C` is recorded as 0.847 (human fibrinogen; SDS-PAGE; Daboia russelii; concentration not given, unit not given, added: KL venom; reference: untreated fibrinogen).
`COc1cc2c3cc1Oc1cc(ccc1O)C[C@@H]1c4c(cc(OC)c(O)c4Oc4ccc(cc4)C[C@@H]3N(C)CC2)CC[N+]1(C)C` has an IC50 of 186 nM (Chrnd/Chrna1/Chrne (Mus musculus, UniProt P02716+P04756+P20782); endplate current amplitude, two-electrode voltage clamp; mouse given myasthenia patient IgG 2 d, mouse hemidiaphragm; membrane potential -80 mV, added: paraoxon).
Under “treatment-emergent adverse events”, `CC[C@H](C)[C@H](NC(=O)[C@H](CC(C)C)NC(=O)[C@H](Cc1c[nH]c2ccccc12)NC(=O)[C@H](CCC(N)=O)NC(=O)[C@@H](NC(=O)[C@H](Cc1ccccc1)NC(=O)[C@H](C)NC(=O)[C@H](CCCCNC(=O)COCCOCCNC(=O)COCCOCCNC(=O)CC[C@H](NC(=O)CCCCCCCCCCCCCCCCCCC(=O)O)C(=O)O)NC(=O)[C@H](CCC(N)=O)NC(=O)[C@H](C)NC(=O)[C@@H](NC(=O)[C@H](CCCCN)NC(=O)[C@H](CC(=O)O)NC(=O)[C@H](CC(C)C)NC(=O)C(C)(C)NC(=O)[C@@H](NC(=O)[C@H](CO)NC(=O)[C@H](Cc1ccc(O)cc1)NC(=O)[C@H](CC(=O)O)NC(=O)[C@H](CO)NC(=O)[C@@H](NC(=O)[C@H](Cc1ccccc1)NC(=O)[C@@H](NC(=O)CNC(=O)[C@H](CCC(=O)O)NC(=O)C(C)(C)NC(=O)[C@@H](N)Cc1ccc(O)cc1)[C@@H](C)O)[C@@H](C)O)[C@@H](C)CC)[C@@H](C)CC)C(C)C)C(=O)N[C@@H](C)C(=O)NCC(=O)NCC(=O)N1CCC[C@H]1C(=O)N[C@@H](CO)C(=O)N[C@@H](CO)C(=O)NCC(=O)N[C@@H](C)C(=O)N1CCC[C@H]1C(=O)N1CCC[C@H]1C(=O)N1CCC[C@H]1C(=O)N[C@@H](CO)C(N)=O` is recorded as 100% (healthy human; 5.0 mg, single ascending dose).
`CCC(C(=O)Nc1cc(NC2CNC2)ccc1C)n1cc(Cl)cc2nc(SCc3ccc(F)cc3)nc1-2` (stereo not drawn) gave an IC50 of > 100000 nM (Replicase polyprotein 1ab, papain-like protease (rep, Middle East respiratory syndrome-related coronavirus, UniProt K9N7C7); enzyme activity, inhibitor).
The IC50 of `CCN[C@H]1[C@H]([C@H](O)[C@H](O)CO)OC(C(=O)O)=C[C@@H]1O` is reported as > 500000 nM (Sialidase (nanI, Clostridium perfringens, UniProt A0A0H2YQR1); enzyme activity, inhibitor).
`Cn1cnc(Cn2c(=O)[nH]/c(=N\c3cc4cn(C)nc4cc3Cl)n(Cc3cc(F)c(F)cc3F)c2=O)n1` has an IC50 of > 100000 nM (Cytochrome P450 1A2 (CYP1A2, Homo sapiens, UniProt P05177); enzyme activity, inhibitor; human liver microsomes; 30 min preincubation, pH 7.4, preincubation without NADPH, added: phenacetin 90 µM).
With `CC[C@H](C)[C@H](NC(=O)[C@H](CC(C)C)NC(=O)[C@H](CO)NC(=O)[C@H](Cc1c[nH]cn1)NC(=O)[C@@H](NC(=O)[C@H](CC(C)C)NC(=O)[C@H](CO)NC(=O)[C@@H](NC(=O)[C@H](Cc1ccc(O)cc1)NC(=O)[C@H](CC(N)=O)NC(=O)[C@H](CC(N)=O)NC(=O)[C@@H](NC(=O)[C@H](CCC(=O)O)NC(=O)[C@H](CCCNC(=N)N)NC(=O)[C@H](CC(=O)O)NC(=O)[C@H](Cc1c[nH]c2ccccc12)NC(=O)[C@H](CCC(=O)O)NC(=O)[C@H](CCSC)NC(=O)[C@H](Cc1c[nH]c2ccccc12)NC(C)=O)[C@@H](C)CC)[C@@H](C)O)[C@@H](C)CC)C(=O)N[C@@H](CCC(=O)O)C(=O)N[C@@H](CCC(=O)O)C(=O)N[C@@H](CO)C(=O)N[C@@H](CCC(N)=O)C(=O)N[C@@H](CC(N)=O)C(=O)N[C@@H](CCC(N)=O)C(=O)N[C@@H](CCC(N)=O)C(=O)N[C@@H](CCC(=O)O)C(=O)N[C@@H](CCCCN)C(=O)N[C@@H](CC(N)=O)C(=O)N[C@@H](CCC(=O)O)C(=O)N[C@@H](CCC(N)=O)C(=O)N[C@@H](CCC(=O)O)C(=O)N[C@@H](CC(C)C)C(=O)N[C@@H](CC(C)C)C(=O)NCC(=O)N[C@@H](CO)C(=O)NCC(=O)N[C@@H](CSCC(=O)O[C@H]1CC[C@@]2(C)C(=CC[C@H]3[C@@H]4CC[C@H]([C@H](C)CCCC(C)(C)O)[C@@]4(C)CC[C@@H]32)C1)C(N)=O` the Kd was 3910 ± 1600 nM (membrane binding, di-8-ANEPPS dipole potential; HIV-like lipid LUVs).
`C=CC(=O)N1CCC(C2CC2)C1C(=O)O` (stereo not drawn) has an IC50 of > 200000 nM (Polyprotein P1234, nsP2 protease domain (Chikungunya virus, UniProt Q5XXP4); protease activity, inhibitor, FRET; 90 min, 30 min preincubation).
`CCC(CC)O[C@@H]1C=C(C(=O)O)C[C@H](N)[C@H]1NC(C)=O` gave an IC50 of 0.18 ± 0.02 nM (Neuraminidase (Influenza A virus, UniProt L0MUX9); enzyme activity, inhibitor; swine influenza A virus, H1N2).
For `CCC(C(=O)Nc1cc(NC2CNC2)ccc1C)n1cccc2nc(SCc3ccc(F)cc3)nc1-2` (stereo not drawn), the IC50 was > 100000 nM (Replicase polyprotein 1ab, papain-like protease (rep, Middle East respiratory syndrome-related coronavirus, UniProt K9N7C7); enzyme activity, inhibitor).
`O=C(CSC(=S)N1CCCC1)c1cc(Br)cc(Br)c1O` gave an IC50 of > 150000 nM (Replicase polyprotein 1ab, nsp13 helicase (rep, Severe acute respiratory syndrome coronavirus 2, UniProt P0DTD1); helicase ATPase activity, inhibitor, Kinase-Glo luminescence).
The unbound fraction of `Cn1cnc(Cn2c(=O)[nH]/c(=N\c3cc4cn(C)nc4cc3Cl)n(Cc3cc(F)c(F)cc3F)c2=O)n1` is reported as 0.0143 (human, mild renal impairment, plasma; oral, 375 mg single dose, 3 h).
For `O=c1c(O)c(-c2ccc(O)c(O)c2)oc2cc(O)c(O)c(O)c12`, the IC50 was 3870 nM (Replicase polyprotein 1ab, main protease (rep, Severe acute respiratory syndrome-related coronavirus, UniProt P0C6X7); enzyme activity, inhibitor).
`Cc1ccc(NC(=O)c2c(Nc3ccccc3)[nH]c(=O)n(O)c2=O)cc1` gave an IC50 of 950 nM (Resolvase OPG149 (OPG149, Monkeypox virus, UniProt A0A7H0DNC1)).
With `CCC(C(=O)Nc1cc(NC2CCNCC2)ccc1C)n1cc(Br)cc2nc(SCc3ccc(F)cc3)nc1-2` (stereo not drawn) the IC50 was 56 ± 8 nM (Replicase polyprotein 1ab, papain-like protease (rep, Severe acute respiratory syndrome-related coronavirus, UniProt P0C6X7); enzyme activity).
The IC50 of `CC(C)[C@H](NC(=O)[C@@H]1CCCN1C(=O)[C@H](CCC(=O)O)NC(=O)[C@H](CCCCN)NC(=O)[C@H](CO)NC(=O)[C@H](CC(=O)O)NC(=O)CNC(=O)[C@@H](N)Cc1ccccc1)C(=O)N1CCC[C@H]1C(=O)N[C@@H](Cc1ccc(O)cc1)C(=O)O` is reported as 134 nM (HLA class I histocompatibility antigen, A alpha chain, allele A*01:01 (Homo sapiens, UniProt P04439); biochemical).
`CCC(C(=O)Nc1cc(NC2CCOCC2)ccc1C)n1cc(Br)cc2nc(SCc3ccc(F)cc3)nc1-2` (stereo not drawn) has an IC50 of 487 ± 18 nM (Replicase polyprotein 1ab, papain-like protease (rep, Severe acute respiratory syndrome-related coronavirus, UniProt P0C6X7); enzyme activity).
`CC(C)[C@H](NC(=O)[C@H](CCCCN)NC(=O)[C@H](CCCNC(=N)N)NC(=O)[C@H](Cc1ccccc1)NC(=O)[C@H](CCC(=O)O)NC(=O)[C@@H](N)Cc1ccc(O)cc1)C(=O)N[C@@H](CCCCN)C(=O)N[C@@H](CO)C(=O)N[C@@H](Cc1ccc(O)cc1)C(=O)O` gave an IC50 of 6.9 nM (HLA class I histocompatibility antigen, B alpha chain, allele B*44:03 (Homo sapiens, UniProt P01889); biochemical).
